Published values pooled from the literature.
Each line is one published result; not all experiments were run side by side. ± marks the error that the study gave.
Cell line: HEK293

With `NCCCC[C@@H](NC(=O)[C@H](Cc1c[nH]cn1)NC(=O)[C@H](CO)NC(=O)[C@H](Cc1c[nH]c2ccccc12)NC(=O)[C@H](Cc1c[nH]cn1)NC(=O)[C@@H]1CCC(=O)N1)C(=O)N[C@@H](Cc1c[nH]c2ccccc12)C(=O)N[C@@H](Cc1ccc(O)cc1)C(=O)N1CCC[C@H]1C(=O)NCC(N)=O` the IC50 was 0.0065 µM (cell growth or viability, SRB).
`Cc1nn(-c2ccccc2)c(O)c1C(c1ccccc1[N+](=O)[O-])c1c(C)nn(-c2ccccc2)c1O` has an IC50 of greater than 40 µM (cell growth or viability, MTT; 48 h).
`COc1c(O)c(-c2c(O)c(OC)c(OC)c3c2ccc2cc(O)ccc23)c2c(c1OC)-c1ccc(O)cc1CC2` gave an IC50 of 18.5 µM (cell growth or viability, CCK-8; 24 h).
For `CCc1ccc(C(c2c(C)nn(-c3ccccc3)c2O)c2c(C)nn(-c3ccccc3)c2O)cc1`, the IC50 was greater than 40 µM (cell growth or viability, MTT; 48 h).
`C#CCCCC[C@H](C)C[C@@H](C)C(=O)N(C)[C@@H](C)C(=O)N1CCC[C@H]1C(=O)N(C)[C@H](C(=O)N(C)[C@H](C(=O)OC)C(C)C)C(C)C` has an IC50 of 97 µM (cell growth or viability, SRB).
For `Cc1cc(C)c(-n2c[n+](-c3c(C)cc(C)cc3C)c3c2-c2cccc4cccc-3c24)c(C)c1.[Cl][Pd-]([Cl])[CH2]C=Cc1ccccc1`, the IC50 was 1.1 µM (cell growth or viability, MTT; 72 h).
`COC(=O)[C@@H](NC(=O)[C@@H](NC(=O)[C@@H](NC(=O)[C@@H]1CCCN1C(=O)[C@H](C)NC(=O)OC(C)(C)C)C(C)C)C(C)C)C(C)C` gave an IC50 of 412 µM (cell growth or viability, SRB).
`CCOC(=O)C(C)(COP(=O)(OC)OCCCCCCNC(=O)c1cc2ccccc2oc1=O)C(=O)CSC(C)=O` (stereo not drawn) gave an IC50 of 1.65 ± 0.95 µM (K-Ras G12V nanoclustering, FRET; 24 h).
The IC50 of `CC(C)c1cccc(C(C)C)c1-n1c[n+](-c2c(C(C)C)cccc2C(C)C)c2c1-c1cccc3cccc-2c13.[Cl][Pd-]([Cl])[CH2]C=Cc1ccccc1` is reported as 2.3 µM (cell growth or viability, MTT; 72 h).
`COC(=O)[C@H](C(C)C)N(C)C(=O)[C@H](C(C)C)N(C)C(=O)[C@@H]1CCCN1C(=O)[C@H](C)N(C)C(=O)OC(C)(C)C` gave an IC50 of 369 µM (cell growth or viability, SRB).
For `Cc1nn(-c2ccccc2)c(O)c1C(c1ccc([N+](=O)[O-])cc1)c1c(C)nn(-c2ccccc2)c1O`, the IC50 was greater than 40 µM (cell growth or viability, MTT; 48 h).
`O=S(=O)([O][Pt]([O]S(=O)(=O)C(F)(F)F)([PH](c1ccccc1)(c1ccccc1)c1ccc[cH-]1)[PH](c1ccccc1)(c1ccccc1)c1ccc[cH-]1)C(F)(F)F.[Fe+2]` gave an IC50 of 65.3 µM (cell growth, MTT; 24 h).
`CC(C)C[C@H](NC(=O)[C@@H](CCCNC(=N)N)NC(=O)[C@H](Cc1c[nH]cn1)NC(=O)[C@H](CO)NC(=O)[C@H](Cc1c[nH]c2ccccc12)NC(=O)[C@H](Cc1c[nH]cn1)NC(=O)[C@@H]1CCC(=O)N1)C(=O)N[C@@H](CCCNC(=N)N)C(=O)N1CCC[C@H]1C(=O)NCC(N)=O` has an IC50 of 0.0359 µM (cell growth or viability, SRB).
For `COc1c(Oc2c(O)c(OC)c(OC)c3c2ccc2cc(O)ccc23)cc2c(c1OC)-c1ccc(O)cc1CC2`, the IC50 was 8.14 µM (cell growth or viability, CCK-8; 24 h).
With `Cc1nn(-c2ccccc2)c(O)c1C(c1cccs1)c1c(C)nn(-c2ccccc2)c1O` the IC50 was greater than 40 µM (cell growth or viability, MTT; 48 h).

Excerpt of the above:
With `NCCCC[C@@H](NC(=O)[C@H](Cc1c[nH]cn1)NC(=O)[C@H](CO)NC(=O)[C@H](Cc1c[nH]c2ccccc12)NC(=O)[C@H](Cc1c[nH]cn1)NC(=O)[C@@H]1CCC(=O)N1)C(=O)N[C@@H](Cc1c[nH]c2ccccc12)C(=O)N[C@@H](Cc1ccc(O)cc1)C(=O)N1CCC[C@H]1C(=O)NCC(N)=O` the IC50 was 0.0065 µM (cell growth or viability, SRB).
